Literature values, collected from citations in different studies.
Each line is one published result; not all experiments were run side by side. ± gives the spread as reported. Where no end group is shown, it is not given here.
B1: HPV E7 protein; chain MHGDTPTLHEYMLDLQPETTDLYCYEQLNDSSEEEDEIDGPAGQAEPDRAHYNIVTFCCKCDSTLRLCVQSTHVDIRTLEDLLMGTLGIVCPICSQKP
UniProt P0DOF5, sequence (whole entry, looked up): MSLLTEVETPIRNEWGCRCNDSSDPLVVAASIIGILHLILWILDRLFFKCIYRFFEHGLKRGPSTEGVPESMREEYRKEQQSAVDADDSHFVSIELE

Under “cytopathic effect inhibition”, `(-)-epicatechin gallate` is recorded as -0.22% (SARS-CoV-2; viral replication; Vero E6; 20 µM).
`B1 (HPV E7 protein)` has an affinity ratio of 20 fold (Rb pocket domain; reference: full-length protein over LxCxE peptide).
`M2 (Influenza A virus, UniProt P0DOF5)` gave a pKa of 6.3 (NMR, measured: His37; tetramer, third protonation).
`GDCLPHLKRCKENNDCCSKKCKRRGTNPEKRCR (opicalcin 1; ends and bridges not checked; cysteine pairing not given here; sequence looked up)` gave a Kd of 0.0003 ± 4e-05 µM (RyR1; [3H]ryanodine binding stimulation, activator; peptide).
`M2 transmembrane peptide (Influenza A virus)` has a pKa of 4.2 (solid-state NMR, measured: His37; virus-mimetic membrane with cholesterol; membrane-bound tetramer, macroscopic, fourth protonation).
For `MLEPFQILSISSFILSALHFMAWTIGHLNQIKR (BM2 transmembrane domain (Influenza B virus))`, the pKa was 7.9 (solid-state NMR, measured: His27; peptide, lipid membrane; highest macroscopic tetrad pKa).
`Thimerosal` has an inhibition of 79.4% (SARS-CoV-2; cytopathic effect; Caco-2; 10 µM).
With `Tannic acid` the IC50 was 13.4 µM (SARS-CoV-2 main protease; enzyme activity, inhibitor).

For quick reference, copied from above:
`Thimerosal` has an inhibition of 79.4% (SARS-CoV-2; cytopathic effect; Caco-2; 10 µM).
